Measured values from different studies.
Protocols differ between the studies behind these lines. ± gives the spread as reported.
Aldo-keto reductase family 1 member A1: Aldo-keto reductase family 1 member A1 (Bos taurus, UniProt Q3ZCJ2)
UniProt Q3ZCJ2, sequence (whole entry, looked up): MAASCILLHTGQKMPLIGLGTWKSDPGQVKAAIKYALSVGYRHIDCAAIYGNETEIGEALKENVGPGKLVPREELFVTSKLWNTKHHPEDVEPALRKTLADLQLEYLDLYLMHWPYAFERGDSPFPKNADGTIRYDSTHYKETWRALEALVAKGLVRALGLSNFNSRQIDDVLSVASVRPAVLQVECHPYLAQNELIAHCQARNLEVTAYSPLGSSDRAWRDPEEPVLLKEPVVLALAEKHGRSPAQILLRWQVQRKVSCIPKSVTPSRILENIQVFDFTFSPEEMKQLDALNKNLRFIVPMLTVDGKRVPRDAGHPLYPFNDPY
EPHX1: Epoxide hydrolase 1 (EPHX1, Homo sapiens, UniProt P07099)
UniProt P07099, sequence (whole entry, looked up): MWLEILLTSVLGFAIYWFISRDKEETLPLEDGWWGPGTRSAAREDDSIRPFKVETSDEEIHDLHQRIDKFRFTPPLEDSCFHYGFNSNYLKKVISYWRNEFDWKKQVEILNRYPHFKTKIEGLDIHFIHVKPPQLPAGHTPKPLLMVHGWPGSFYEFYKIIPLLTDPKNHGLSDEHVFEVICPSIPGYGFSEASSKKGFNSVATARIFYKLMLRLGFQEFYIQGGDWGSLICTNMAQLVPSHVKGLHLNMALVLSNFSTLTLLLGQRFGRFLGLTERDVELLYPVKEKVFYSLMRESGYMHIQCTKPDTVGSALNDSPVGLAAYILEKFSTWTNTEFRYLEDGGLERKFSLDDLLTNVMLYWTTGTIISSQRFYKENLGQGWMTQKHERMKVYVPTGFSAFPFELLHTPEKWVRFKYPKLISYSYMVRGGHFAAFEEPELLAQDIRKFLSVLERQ
SLC51A with OSTβ: Organic solute transporter subunit alpha, with OSTβ (SLC51A, Homo sapiens, UniProt Q86UW1)
UniProt Q86UW1, sequence (whole entry, looked up): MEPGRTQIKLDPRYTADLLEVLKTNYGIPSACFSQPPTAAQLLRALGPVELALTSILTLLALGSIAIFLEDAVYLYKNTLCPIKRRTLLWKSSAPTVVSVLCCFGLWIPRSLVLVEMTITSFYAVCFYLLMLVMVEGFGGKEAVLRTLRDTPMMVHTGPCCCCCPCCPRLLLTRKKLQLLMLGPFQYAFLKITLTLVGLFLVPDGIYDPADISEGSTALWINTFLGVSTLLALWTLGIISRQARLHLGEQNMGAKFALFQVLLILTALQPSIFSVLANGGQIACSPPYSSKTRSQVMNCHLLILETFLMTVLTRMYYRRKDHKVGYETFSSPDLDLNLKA
CNGA1: Cyclic nucleotide-gated channel alpha-1 (CNGA1, Bos taurus, UniProt Q00194)
UniProt Q00194, sequence (whole entry, looked up): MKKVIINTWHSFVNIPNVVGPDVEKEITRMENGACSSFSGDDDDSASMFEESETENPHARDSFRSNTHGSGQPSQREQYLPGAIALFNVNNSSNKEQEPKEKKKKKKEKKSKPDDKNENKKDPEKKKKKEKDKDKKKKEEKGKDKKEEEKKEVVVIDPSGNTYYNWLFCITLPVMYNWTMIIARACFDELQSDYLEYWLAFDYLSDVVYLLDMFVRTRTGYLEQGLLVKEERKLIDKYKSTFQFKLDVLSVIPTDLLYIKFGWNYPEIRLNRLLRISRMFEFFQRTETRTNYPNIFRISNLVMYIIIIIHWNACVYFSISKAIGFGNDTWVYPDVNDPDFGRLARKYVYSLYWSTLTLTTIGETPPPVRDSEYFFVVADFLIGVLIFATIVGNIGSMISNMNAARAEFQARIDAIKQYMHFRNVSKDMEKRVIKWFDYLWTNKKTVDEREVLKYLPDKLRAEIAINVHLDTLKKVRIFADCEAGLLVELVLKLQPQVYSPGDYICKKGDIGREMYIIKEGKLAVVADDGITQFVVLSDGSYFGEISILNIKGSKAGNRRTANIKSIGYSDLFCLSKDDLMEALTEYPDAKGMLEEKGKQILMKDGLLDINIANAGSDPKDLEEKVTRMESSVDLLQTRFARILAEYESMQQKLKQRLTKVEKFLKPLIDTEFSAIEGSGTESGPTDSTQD
PLA2G5: Phospholipase A2 group V (PLA2G5, Homo sapiens, UniProt P39877)
UniProt P39877, sequence (whole entry, looked up): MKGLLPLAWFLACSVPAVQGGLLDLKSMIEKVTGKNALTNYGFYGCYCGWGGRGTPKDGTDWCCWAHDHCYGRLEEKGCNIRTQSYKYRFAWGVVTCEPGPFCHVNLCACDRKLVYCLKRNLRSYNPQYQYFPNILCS
PARP3: Protein mono-ADP-ribosyltransferase PARP3 (PARP3, Homo sapiens, UniProt Q9Y6F1)
UniProt P03889, sequence (whole entry, looked up): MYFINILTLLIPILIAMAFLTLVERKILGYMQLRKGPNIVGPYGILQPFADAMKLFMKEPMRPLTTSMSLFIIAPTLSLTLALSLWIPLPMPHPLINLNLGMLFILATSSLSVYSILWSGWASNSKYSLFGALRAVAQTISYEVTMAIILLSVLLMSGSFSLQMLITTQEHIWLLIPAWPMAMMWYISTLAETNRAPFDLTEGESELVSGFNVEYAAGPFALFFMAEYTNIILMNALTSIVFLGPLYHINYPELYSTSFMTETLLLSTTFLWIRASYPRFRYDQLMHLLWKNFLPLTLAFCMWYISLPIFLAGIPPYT
UniProt Q641Y2, sequence (whole entry, looked up): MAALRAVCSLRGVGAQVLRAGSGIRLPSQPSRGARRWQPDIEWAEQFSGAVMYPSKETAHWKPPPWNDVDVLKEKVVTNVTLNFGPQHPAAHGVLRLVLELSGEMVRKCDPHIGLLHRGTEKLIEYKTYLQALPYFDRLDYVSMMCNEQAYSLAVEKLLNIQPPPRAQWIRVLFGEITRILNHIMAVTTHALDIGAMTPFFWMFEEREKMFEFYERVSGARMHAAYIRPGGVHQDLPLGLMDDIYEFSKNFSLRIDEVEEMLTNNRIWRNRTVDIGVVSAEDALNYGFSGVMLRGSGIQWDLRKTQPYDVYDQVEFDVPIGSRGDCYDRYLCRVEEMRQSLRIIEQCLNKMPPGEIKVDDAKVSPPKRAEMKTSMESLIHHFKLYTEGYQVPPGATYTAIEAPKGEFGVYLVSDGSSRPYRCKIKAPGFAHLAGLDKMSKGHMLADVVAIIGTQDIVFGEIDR
UniProt Q9Y6F1, sequence (whole entry, looked up): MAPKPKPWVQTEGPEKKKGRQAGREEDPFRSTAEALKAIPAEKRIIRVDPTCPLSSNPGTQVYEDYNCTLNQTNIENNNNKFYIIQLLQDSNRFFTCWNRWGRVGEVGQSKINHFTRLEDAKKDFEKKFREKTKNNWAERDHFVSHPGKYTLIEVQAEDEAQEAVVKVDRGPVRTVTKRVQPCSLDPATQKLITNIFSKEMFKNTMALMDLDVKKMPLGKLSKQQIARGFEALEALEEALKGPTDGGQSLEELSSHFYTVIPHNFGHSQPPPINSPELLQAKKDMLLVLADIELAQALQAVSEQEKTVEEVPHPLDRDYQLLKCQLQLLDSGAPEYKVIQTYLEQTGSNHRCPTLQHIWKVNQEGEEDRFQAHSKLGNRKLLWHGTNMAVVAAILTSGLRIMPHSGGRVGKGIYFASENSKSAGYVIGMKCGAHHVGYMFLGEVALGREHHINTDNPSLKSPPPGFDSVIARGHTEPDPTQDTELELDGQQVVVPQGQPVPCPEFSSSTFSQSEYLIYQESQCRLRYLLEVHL
UniProt Q00534, sequence (whole entry, looked up): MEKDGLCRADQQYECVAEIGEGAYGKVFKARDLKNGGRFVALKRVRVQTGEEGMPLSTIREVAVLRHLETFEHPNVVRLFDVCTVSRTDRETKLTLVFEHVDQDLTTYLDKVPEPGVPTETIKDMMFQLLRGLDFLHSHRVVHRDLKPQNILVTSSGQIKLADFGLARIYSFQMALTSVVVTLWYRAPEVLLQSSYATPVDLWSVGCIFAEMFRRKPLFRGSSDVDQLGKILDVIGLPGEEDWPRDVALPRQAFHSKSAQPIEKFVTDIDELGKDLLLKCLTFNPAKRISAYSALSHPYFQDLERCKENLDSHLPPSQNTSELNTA

Molecule | target | test | test system | conditions | scale | inhibition
Cc1ccc(O)c(C=NNC(=S)Nc2ccc(Br)cc2)c1 | Aldo-keto reductase family 1 member A1 | inhibitor | Bos taurus (calf) | 100 µM, with: D-glucuronate substrate |  | 23.8%
C/C(=N/N=c1/scc(-c2ccc([N+](=O)[O-])cc2)n1-c1c(C)cccc1C)c1ccc2c(c1)NC(=O)CO2 | Aldo-keto reductase family 1 member A1 | enzyme activity, inhibitor, absorbance |  | 1 mM |  | 19.6%
Fc1cccc(SSc2cccc(F)c2)c1 | tubulin | colchicine binding, [3H]colchicine binding |  | 5 µM, 10 min, 37 °C, with: [3H]colchicine 5.0 µM |  | 1.4 ± 4%
Cc1ccc(O)c(C=NNC(=S)Nc2cccc(F)c2)c1 | Aldo-keto reductase family 1 member A1 | inhibitor | Bos taurus (calf) | 100 µM, with: D-glucuronate substrate |  | 17.8%
O=[N+]([O-])c1ccc(Oc2ccc(S(=O)(=O)NC3CCCCC3)cc2)cc1 | NADH dehydrogenase complex I, ubiquinone-binding site IQ (Rattus norvegicus, UniProt A6K8N6+P03889+Q641Y2) | site IQ H2O2 production | rat mitochondria | concentration not given, with: succinate |  | ≥ 50%
Clc1cccc(SSc2cccc(Cl)c2)c1 | tubulin | colchicine binding, [3H]colchicine binding |  | 5 µM, 10 min, 37 °C, with: [3H]colchicine 5.0 µM |  | 12 ± 2%
COc1cccc(NC(=S)NN=Cc2cc(C)ccc2O)c1 | Aldo-keto reductase family 1 member A1 | inhibitor | Bos taurus (calf) | 100 µM, with: D-glucuronate substrate |  | 38.2%
CCCCCCCCCCCCNC(=O)CCCC | EPHX1 | enzyme activity, inhibitor, fluorescence |  | 100 µM |  | -15%
CCc1c(Cl)c(O)c(Cl)c(O)c1C(=O)O[C@H]1[C@H](O)[C@H](OC)[C@H](OC/C2=C\C=C\C[C@H](O)/C(C)=C/[C@H](CC)[C@@H](O[C@@H]3OC(C)(C)[C@@H](OC(=O)C(C)C)[C@H](O)[C@@H]3O)/C(C)=C/C(C)=C/C[C@@H]([C@@H](C)O)OC2=O)O[C@@H]1C | SLC51A with OSTβ | taurocholate uptake, inhibitor | OSTα/β-expressing cells | 100 µM, 30 s, preincubation and co-incubation, with: taurocholate 20 µM |  | > 70%
Fc1ccc(SSc2ccc(F)cc2)cc1 | tubulin | colchicine binding, [3H]colchicine binding |  | 50 µM, 10 min, 37 °C, with: [3H]colchicine 5.0 µM |  | 17 ± 4%
CCCCCCCCCCCCNC(C)=O | EPHX1 | enzyme activity, inhibitor, fluorescence |  | 100 µM |  | 33%
O=S(=O)(Sc1cccc(Br)c1)c1cccc(Br)c1 | tubulin | colchicine binding |  | 50 µM, 10 min, 37 °C, with: [3H]colchicine 5.0 µM |  | 99 ± 1%
COc1cccc(-n2c(-c3ccc([N+](=O)[O-])cc3)cs/c2=N/N=C\c2c[nH]c3ccccc23)c1 | Aldo-keto reductase family 1 member A1 | enzyme activity, inhibitor, absorbance |  | 1 mM |  | 12.4%
CCCCCCCC(=O)OC[C@H](CO)OC(=O)CCCCCCC | CNGA1 | cGMP-activated current, inside-out patch, Xenopus oocytes |  | 0.5 µM, with: cGMP 10 µM |  | 93%
CCCC[C@H](NC(=O)C(=O)CCCCc1ccc(OC)cc1)C(=O)N[C@@H](C)C(=O)OC(C)(C)C | PLA2G5 | enzyme activity, mixed micelle |  | 0.091 mole fraction |  | 49.9 ± 0.8%
Cc1ccc(O)c(C=NNC(=S)Nc2ccc(F)cc2F)c1 | Aldo-keto reductase family 1 member A1 | inhibitor | Bos taurus (calf) | 100 µM, with: D-glucuronate substrate |  | 33.6%
CC(C)(C)c1cnc(CSc2cnc(NC(=O)C3CCN(CC(=O)NCCOCCOCCOCCNc4cccc5c4C(=O)N(C4CCC(=O)NC4=O)C5=O)CC3)s2)o1 (stereo not drawn) | CDK6 (Homo sapiens, UniProt Q00534) | probe labeling, KiNativ live-cell profiling | MOLT-4 CRBN knockout | 0.25 µM |  | 6.6%
C/C(=N/N=c1/scc(-c2ccc(Br)cc2)n1-c1ccccc1)c1ccc2c(c1)NC(=O)CO2 | Aldo-keto reductase family 1 member A1 | enzyme activity, inhibitor, absorbance |  | 1 mM |  | 22.6%
Cc1ccc(NC(=S)NN=Cc2cc(C)ccc2O)c(C)c1 | Aldo-keto reductase family 1 member A1 | inhibitor | Bos taurus (calf) | 100 µM, with: D-glucuronate substrate |  | 24.7%
GMGGRGLLL | Qa-1 (mouse), soluble | binding, SPR competition | peptide | 20 µM, 25 °C, 2% DMSO, unit not given | baseline: maximal blocking by 20 µM Qdm | 0.74

Molecule | target | test | test system | conditions | scale | inhibition
C/C(=N/N=c1/scc(-c2ccc(Br)cc2)n1-c1ccccc1C)c1ccc2c(c1)NC(=O)CO2 | Aldo-keto reductase family 1 member A1 | enzyme activity, inhibitor, absorbance |  | 1 mM |  | 6.7%
O=CN/C=C/c1cc(O)ccc1O | CNGA1 | cGMP-activated current, inhibitor, inside-out patch clamp | Xenopus oocytes | 25 µM, with ATP, with: cGMP 2 mM |  | no effect
O=C1NCC(c2ccccc2)C(O)c2ccccc21 (racemic) | PARP3 | enzyme activity, inhibitor, chemiluminescent |  | 10 µM |  | ~91%
O=C(O)c1cc(N(Cc2ccccc2O)Cc2cc(O)ccc2O)ccc1O | CNGA1 | cGMP-activated current, inhibitor, inside-out patch clamp | Xenopus oocytes | 10 µM, with ATP, with: cGMP 2 mM |  | no effect
C[C@H](CCC(=O)NCCS(=O)(=O)O)[C@H]1CC[C@H]2[C@@H]3CC[C@@H]4C[C@H](OS(=O)(=O)O)CC[C@]4(C)[C@H]3CC[C@]12C | SLC51A with OSTβ | DHEAS uptake, inhibitor | Flp-In-293 expressing OSTα/β | 100 µM, 30 s, preincubation and co-incubation, with: DHEAS 20 µM |  | ~20%
Cc1ccc(O)c(C=NNC(=S)Nc2ccc(C(C)C)cc2)c1 | Aldo-keto reductase family 1 member A1 | inhibitor | Bos taurus (calf) | 100 µM, with: D-glucuronate substrate |  | 41.5%
O=S(=O)(Sc1ccc(F)cc1)c1ccc(F)cc1 | tubulin | colchicine binding, [3H]colchicine binding |  | 50 µM, 10 min, 37 °C, with: [3H]colchicine 5.0 µM |  | 100 ± 0.3%
C/C(=N/N=c1/scc(-c2ccc([N+](=O)[O-])cc2)n1-c1c(C)cccc1C)c1ccc2c(c1)OCCO2 | Aldo-keto reductase family 1 member A1 | enzyme activity, inhibitor, absorbance |  | 1 mM |  | 21.7%
Brc1ccc(SSc2ccc(Br)cc2)cc1 | tubulin | colchicine binding, [3H]colchicine binding |  | 50 µM, 10 min, 37 °C, with: [3H]colchicine 5.0 µM |  | 0 ± 2%
CCCCCCCCCCCCCCC(=O)C(=O)N[C@@H](CCCC)COCC(=O)OCC | PLA2G5 | enzyme activity, inhibitor, mixed micelle |  | 0.091 mole fraction |  | ~80%
C/C(=N/N=c1/scc(-c2ccc(Cl)cc2)n1-c1ccc(F)cc1)c1ccc2c(c1)NC(=O)CO2 | Aldo-keto reductase family 1 member A1 | enzyme activity, inhibitor, absorbance |  | 1 mM |  | 22.6%
CC(=O)S[C@@H]1CC2=CC(=O)CC[C@]2(C)[C@H]2CC[C@@]3(C)[C@@H](CC[C@@]34CCC(=O)O4)[C@H]12 | SLC51A with OSTβ | transport | Flp-In-293 cells overexpressing OSTα/β | 100 µM, 30 s, with: DHEAS 20 µM |  | no inhibition
O=S(=O)(Sc1ccccc1Cl)c1ccccc1Cl | tubulin | colchicine binding |  | 5 µM, 10 min, 37 °C, with: 5.0 µM [3H]colchicine |  | 12 ± 2%
O=C1CCCc2ccccc2N1 | PARP3 | enzyme activity, inhibitor |  | 10 µM |  | 24%
O=c1c(-c2ccc(O)cc2)coc2cc(O)cc(O)c12 | CNGA1 | ion current, inside-out patch clamp | Xenopus oocytes | 100 µM, with: cGMP 2 mM |  | 45.8 ± 5.7%
CC(=N/N=c1\scc(-c2ccc(Cl)cc2)n1-c1c(C)cccc1C)C12CC3CC(CC(C3)C1)C2 | Aldo-keto reductase family 1 member A1 | enzyme activity, inhibitor, absorbance |  | 1 mM |  | 19.7%
Fc1ccccc1SSc1ccccc1F | tubulin | colchicine binding, [3H]colchicine binding |  | 50 µM, 10 min, 37 °C, with: [3H]colchicine 5.0 µM |  | 53 ± 5%
C/C(=N/N=c1/scc(-c2ccc(Br)cc2)n1-c1ccccc1)c1ccc2c(c1)OCCO2 | Aldo-keto reductase family 1 member A1 | enzyme activity, inhibitor, absorbance |  | 1 mM |  | 23.7%
N=C(N=C(N)N)NCCc1ccccc1 | NADH dehydrogenase complex I (Rattus norvegicus, UniProt A6K8N6+P03889+Q641Y2) | NADH:ubiquinone-1 oxidoreductase activity, inhibitor | solubilised rat mitochondria | 200 µM, pH 7.4, 25 °C, active form, with: NADH 200 µM and ubiquinone-1 100 µM |  | ~10%
